# Results gathered from unrelated publications.
# Parts stem from different laboratories: compare values within a part only. Substitutions count along the parent as printed.

# Set 1
# Target: Centromere-binding protein 1, full length, His-tagged (CBF1, Saccharomyces cerevisiae, UniProt P17106, residues 1-351)
# UniProt P17106, sequence (whole entry, looked up): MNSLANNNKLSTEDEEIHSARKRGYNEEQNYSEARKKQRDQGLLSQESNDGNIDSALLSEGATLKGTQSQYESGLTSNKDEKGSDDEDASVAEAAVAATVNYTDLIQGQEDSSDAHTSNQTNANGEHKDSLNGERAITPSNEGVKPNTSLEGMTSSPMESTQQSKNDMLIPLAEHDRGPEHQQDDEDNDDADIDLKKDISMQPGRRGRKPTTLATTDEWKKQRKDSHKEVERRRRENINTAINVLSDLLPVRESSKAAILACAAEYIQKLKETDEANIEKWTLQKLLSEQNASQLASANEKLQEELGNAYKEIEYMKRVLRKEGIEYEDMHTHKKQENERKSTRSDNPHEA
# Method: competition protein-binding microarray
# Form: double-stranded DNA, one strand shown
# Matrix: in vitro
# Concentration: 2 µM
# Setting: whole 60-bp probe, lowest competitor level
# Added: Pho4 competitor, 0.05 µM
# Direction: higher = stronger binding
# Constant ends, left off below: … GTCTTGATTCGCTTGACGCTGCTG
Oligonucleotide,fluorescence intensity [a.u.]
ATGAATTACCTAACTCAGGTGACGGGGTGTTCAAAT,130
CTTTCCCGATCTTGTGTTGTGGGTGTAGCACATTTG,92.4
CGGGGTTAAGTTTTTCACGTGTAGTGCTTGCAGCAG,466
CAAAATGGCAACTGGCACGTGAAGCTGTCGATATTG,1120
TGCGCAACAACTTGACTCGTGGGTGTATGTCTAGAA,74.9
CTTCTGTAAATTTGCAGTGTGGGTGGACGCGCCCCG,68
CTTTCCCGATCTTGCAATGTGGGTGTAGCACATTTG,74.5
AAATTACTAAGTTTTCACGTGAATTACCCCGTATGA,787
GAGGTTGGCCTTTTGCACGTAGCTGTTGCTGTTGCT,69.6
GCGAAATTATAGGGTCAGGTGATATTTGCGATGTGA,1890
AAATTGGCCACAAGCATCGTGCCGAGCAAATTAAAC,67.4
CATACCCAACCTTGATATGTGGGTGAAGATATTTGT,86.7
AAAAGTTTAAACTGGCACGGGCTATTGCGTCTCATA,92.2
CTATATACATGTATACACGTGAGATAATAAATTATG,1990
GTCTTGTCTCATTGTCACGTGACTTTCCCCACTTCA,21500
TTGTAAGGCTGTACCCACGTCTTGAAAGGCAATCTG,70.5
CGTCCTAGTGATTTTCACGTGTCGTCCATGAGGAAG,836
AAAGCGGTAATTTGTTGCGTGGGTGCAGATATCTAT,93
ATTGGGATAACCAGGCACACGCTAATGCGAGATAGC,73.9

# Set 2
# Target: Protein C-ets-1 (ETS1, Homo sapiens, UniProt P14921, residues 1-441, full length assumed)
# Method: protein-binding microarray
# Form: double-stranded DNA, one strand shown
# Matrix: in vitro
# Concentration: not given
# Setting: k-mer, scored over probes, only values ≥0.25
# Direction: higher = stronger binding
# Target sequence (chain): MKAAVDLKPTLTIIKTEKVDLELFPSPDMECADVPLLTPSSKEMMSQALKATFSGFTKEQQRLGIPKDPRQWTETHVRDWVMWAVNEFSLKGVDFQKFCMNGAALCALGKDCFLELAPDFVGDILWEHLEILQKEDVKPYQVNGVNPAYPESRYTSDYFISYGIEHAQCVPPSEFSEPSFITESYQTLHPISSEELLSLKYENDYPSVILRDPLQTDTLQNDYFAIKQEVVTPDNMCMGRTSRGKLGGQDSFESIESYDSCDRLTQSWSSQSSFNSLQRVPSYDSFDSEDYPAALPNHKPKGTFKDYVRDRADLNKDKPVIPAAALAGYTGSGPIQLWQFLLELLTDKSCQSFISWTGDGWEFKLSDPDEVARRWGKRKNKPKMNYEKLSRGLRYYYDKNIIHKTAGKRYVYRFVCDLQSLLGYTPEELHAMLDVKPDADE
Oligonucleotide,E-score
TACAGGAA,0.454
CCGGATAG,0.439
CGATAGGA,0.258
CGGATAAA,0.298
GGAAGGAC,0.374
GGAAAGCA,0.253
AGCGGGAA,0.257
GAGGAAGA,0.349
TCCGGCAA,0.386
GACCTTCC,0.264
AATTCCGG,0.426
AGGGAAAC,0.346
GGATGCCC,0.394
ATTCCGCC,0.322
AACTTCCG,0.488
CAGAGGAA,0.328
ATCTTCCG,0.422
AAGGGGAA,0.313
GAGACGGA,0.318
ATACACCG,0.26
ATCCCGGA,0.419
ATCCGCCG,0.402
CGACGGAA,0.399

# Set 3
# Target: Histone acetyltransferase KAT6A, winged helix 2, GST fusion (KAT6A, Homo sapiens, UniProt Q92794, residues 85-181)
# Method: protein binding microarray
# Form: double-stranded DNA, one strand shown
# Matrix: in vitro
# Concentration: not given
# Setting: 8-mer, flanks averaged, mean of 2 arrays, mostly near background
# Reference: not given
# Direction: higher = stronger binding
# Target sequence (chain): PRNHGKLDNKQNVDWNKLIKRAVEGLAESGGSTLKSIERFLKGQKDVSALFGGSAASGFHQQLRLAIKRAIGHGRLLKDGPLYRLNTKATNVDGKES
Oligonucleotide,E-score
AGCGGGTA,0.129
GTGCTCCA,0.0849
TATCCTCA,0.0427
AGACTCGA,-0.0994
CGTCTTTA,0.0806
TAGATAGA,-0.278
TAAACTTA,-0.0178
CTTCATAC,-0.0255
GATGCGAA,0.00518
AGGGGACT,0.0796
AGATGTAC,-0.149
ATCTAGAA,0.143
AGTCTTTG,-0.194
GTTTAAAC,0.182
CTCAATAA,-0.00814
ATTCGCCA,0.0316
AGACGCGA,0.0804
CGGGCTAC,0.015
CTTTTGAC,-0.0608
CCCGGTAG,0.0197
CGACGTGA,-0.0273
ACATATCT,-0.00252
ACTATCAA,-0.0684
GAGTTCTA,-0.00536
CTTTATAC,-0.0302

# Set 4
# Target: RING finger protein unkempt homolog, zinc fingers 1-6, GST-SBP tag (UNK, Homo sapiens, UniProt Q9C0B0, residues 30-357)
# Method: RNA Bind-n-Seq
# Form: RNA
# Matrix: in vitro
# Concentration: not given
# Setting: RNA with constant flanks, human-mouse chimeric sites, ends assumed
# Reference: input RNA pool
# Direction: higher = stronger binding
# Constant ends, left off below: GGGAGUUCUACAGUCCGACGAUC … CAACAGAGGAUUGAGCAUCA
# Residues (chain): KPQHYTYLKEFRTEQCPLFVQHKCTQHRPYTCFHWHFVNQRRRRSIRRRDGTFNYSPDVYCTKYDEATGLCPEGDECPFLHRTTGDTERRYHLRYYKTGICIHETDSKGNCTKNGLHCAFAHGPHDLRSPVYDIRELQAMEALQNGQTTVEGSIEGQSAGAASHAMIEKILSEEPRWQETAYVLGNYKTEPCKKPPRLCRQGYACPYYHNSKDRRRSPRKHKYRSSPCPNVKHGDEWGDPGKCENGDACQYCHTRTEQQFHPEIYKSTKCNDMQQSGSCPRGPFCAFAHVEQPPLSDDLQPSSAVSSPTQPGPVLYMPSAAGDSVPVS
Oligonucleotide,bound/input enrichment [ratio]
GGUGGGGUGGUCAUUGCCGUUUGAGCUGCUGAUUUUCAUGAGUCGCCUUCAAAACUCUCGCAUAGGGUUGACACUGUGGGGGGGUGGGGGAUCCAGCUUAUUCUUUUAUUUUCAAGUCCA,0.364
GAGUCGAGCAAACUUGAAACAAUUCGUUAUCUUGCAGCCUCAGUGUUUUUACUUGCCGCGAUAGCAUAUUGGGAUUUUAGGUUCUGGAAGGAGAACUGACGAUGAUGCUGCCGCUGCUGC,0.185
CGCGUCCCCUUCUCGCUGCGGAGCCCGAGCUGGGAACCAUUCCGGGACUGGUACCCUGCACACAGCCGCCUCUUCGAUCAAGCUUUCGGGGUGCCCCGGUUGCCCGAUGAGUGGUCGCAG,0.0818
CGGAGCCCUCCUCUCCCACAGGCCCAAGAUAUAACCCACCAGUGCCUUUUGUCUUCCUGUCAGCUCUGUCAAUCACGCCUGUCCUCUGUCCCUCUCACUCCCCAGCCAAAGUGGGGAGGG,0.619
UCUUUAAAAAAAAAAUUACAGGAAAAUACAGUGCUUUCCCUCCCAUAGAUCCACGUUCAAGCUCAAAGAGCAAAGGCUUUGCACGGAGCUCAAACAUCUGAUGAAGAUUUUUGAGACAGA,0.898
CUUAAUGAUAUUUUGAGUGAAUAAAUGAAGCUAAAAUGUCUGCUUUUGGUACAACACGCAUUAAUAAAAGGUUAAGUUUUGUUUUCCACUGAAGUACUAUUUAACAUCUCAGAAAAAAAC,0.2
AAAGUGAUGACUAUGUUUGUCCAACGACAGGUAUUUUCUGAGAACAAAGAUGAGAUUGCUUUAGUCCUCUAUGGCACAGAUGGCACUGAUAAUGCCCUUGCUGGCAAGGACCAGUAUCAG,0.138
CCACCAGGAUCCCAGAAACAUGACCCUUGCUGCCUACAAAGAGAAGAUGAAGGAGCUCCCGCUGGUGUCCUUGUUCUGCUCCUGCUUCUUGUCUGAUCCCCUGAAUAAGUCGUCCUACAA,0.237

# Set 5
# Target: FOS, bZIP domain (human)
# Method: DHFR protein complementation
# Matrix: yeast
# Setting: single substitutions, most at no-binding floor
# Reference: wild-type JUN-FOS pair
# Direction: higher = stronger binding
# Starting sequence: JUN, bZIP domain (human); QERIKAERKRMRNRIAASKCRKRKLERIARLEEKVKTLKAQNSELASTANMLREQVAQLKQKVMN; partner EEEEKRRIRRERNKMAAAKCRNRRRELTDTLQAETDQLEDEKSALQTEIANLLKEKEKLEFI
Substitution,binding fitness
K34C,-0.233 natural log
S47M,0.0118 natural log
A49K,-0.271 natural log
K36Y,-0.173 natural log
E32S,-0.0161 natural log
E44D,-0.221 natural log
K36D,-0.116 natural log
K34R,0.14 natural log
Q41I,-0.0206 natural log
T37I,-0.0195 natural log
A46W,-0.304 natural log
A29R,-0.11 natural log
E44I,-0.0938 natural log
L38I,-0.79 natural log
L45E,-1.34 natural log
A46M,-0.0534 natural log
Q41P,-1.37 natural log

# Set 6
# Target: Sal-like protein 4, full length isoform B (SALL4, Homo sapiens, UniProt Q9UJQ4-2, residues 1-616)
# Method: universal PBM
# Form: double-stranded DNA, one strand shown
# Matrix: in vitro
# Concentration: not given
# Setting: 8-mer, flanks averaged, mean of replicates
# Direction: higher = stronger binding
Oligonucleotide,E-score
CGGTCCCA,-0.321
ACCGCAAC,-0.129
CCCCGAAC,-0.228
AGTTGCCC,-0.0296
GCGTGCAA,-0.152
ACCTTGCT,-0.147
CACGGGGA,-0.308
AGGTGTTG,-0.0206
GAATTTTA,0.306
ATTGGTTA,0.196
AAGCCTAG,-0.0159
CTACGACA,0.0722
CCGGTCTA,-0.316
AGTCAGGA,-0.147
TCATACGA,0.189
AGCGTTTG,-0.17
AGATAAGC,0.0882
ACCTTTAA,0.106
ATTCTCGC,-0.104
GCGATTTA,0.106
AGCGAGCT,-0.185
GCGGCTTA,-0.119
AGAGCACG,-0.176
GCCCCGAA,-0.288
